Experimental data collected from several papers.
Parts stem from different laboratories: compare values within a part only. Changes are numbered by the printed parent chain.

Series 1
Target: CCNE2, cyclin fold, Cln2 fusion (human)
Technique: yeast growth competition, sequencing
Matrix: yeast
Notes: strong parent motif
Reference: not given
Reading: higher = stronger binding
Starting sequence: E2F3 docking peptide (human); PPAKRRLELGESG; partner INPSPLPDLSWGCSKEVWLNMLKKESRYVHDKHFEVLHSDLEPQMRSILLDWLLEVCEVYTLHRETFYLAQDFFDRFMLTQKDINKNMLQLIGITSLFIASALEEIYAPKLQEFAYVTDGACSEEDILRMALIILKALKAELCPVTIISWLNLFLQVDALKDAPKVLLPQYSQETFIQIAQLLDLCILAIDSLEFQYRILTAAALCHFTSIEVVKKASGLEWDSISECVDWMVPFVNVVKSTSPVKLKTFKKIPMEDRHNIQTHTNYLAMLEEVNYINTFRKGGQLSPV
| Change | normalised enrichment score |
| --- | --- |
| G13A | 0.793 |
| K4A | 0.69 |
| G10A | 1.26 |
| E8A | 0.51 |
| R5K L9F | 1.55 |
| P1A | 1.08 |
| R6A | 0.0793 |

Series 2
Target: RNA binding protein fox-1 homolog 2, RRM domain, GST-SBP tag (RBFOX2, Homo sapiens, UniProt O43251-10, residues 100-194)
Technique: RNA Bind-n-Seq
Form: RNA
Matrix: in vitro
Tested at: 365 nM
Notes: natural RNA segment, single round, ends assumed
Reference: no-protein control
Reading: higher = stronger binding
Constant ends, left off below: GGGAGUUCUACAGUCCGACGAUC … UGGAAUUCUCGGGUGCCAA
Target sequence (chain): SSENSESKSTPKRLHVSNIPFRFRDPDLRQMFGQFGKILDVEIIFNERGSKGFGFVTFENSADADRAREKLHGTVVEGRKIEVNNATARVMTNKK
| Strand | RBNS enrichment (R) |
| --- | --- |
| CGGCAUGGACGACGAGGAGGACUUCAACAAUUCACCCGCGCUGGGGAACAACAGCCCGUGGAACAGUAAACCUCCCGCCACUCAAGAGACCAAAUCAGAAAACCCCCCAC | 0.966 |
| CAAUUAAGUUUGAAUGAAUGCCCCUUUUAUGUAGAGUGCUGGUCCCCAGUCAUUGCUGUCUGCAAGUGAUGCGCAUUUAAGUGUUUAAUCUCCUGGGAGCAGGGCACAGG | 1.46 |
| ACAUCUGUUGUCAGAGCCACUGAGUGCUGUGCUGCUCGACGUGAGGGUGAAAUGAUUGACUUGUGACCUGCCAGGUUGCCCGAUGCCCUGUUGGGUCACCGGCUGGACCU | 0.317 |
| AAUAUGAAUUCAAAAUUCCACUCUUAUCUGAUAGUUUGAGUCAUGGUCUUAGAUACCAGCUACCUACGAGAGAGAGAGAAAUUGGUUUGUAAUAUCAGUGUAAGUAAAAU | 0.55 |
| GAUCUGUGCAUUUUGUGCCUUAUUCACUCGAGUGGUAGAAGUUCCGCGGUAUGUUGAGUGUUUCCACUACAGAGCAUCAUUUCCCAUGUGCCACUUGUAAAUGUUUUGCA | 0.986 |
| ACUGAUGACUUGUGUGCAAACAAGUGUUUAUCCGGGUUGCAUUAUCCAAACUGGUUUGUUAAAAACUCUAGGUCACAUUCUUACACUAAGAAAAACAGUUAACAUGAGAC | 0.265 |
| CCAGGGACAGUGGGUUUGGAUCUGUCUAGAACAGCGGUUUGUGGCUGUGGCCCAGCUCCGAGAGUGAUAUUUGCUCUGGUAGGUGAGGGCCUGAGGGUACAUUUCUCCAC | 0.55 |
| UUUGCCCAGCUCAGCAUCAGCUAAACCACAGACCUGGAAGAGUCAGCCUAGGAGAUGCCACACAUGCACAUGUCUGUUGCUUCUGUUGGCCUGAACCUACAACUGCCAAA | 6.79 |
| AGGGAGAGGAAGUCUCGCUCUCUCUCCUCACAGCCCUUGGCCCCAGCAUUUAUUCUUGGGUCCUUUAGCCAAACCCAUUCCCUCUUCCUCCCAUGCAAGUUCUUUUGGGA | 2.87 |
| ACAAAGCCACAGUUUAACUGUCUGCAACAGUUGGUUUAUGUUAAUGAUAGACAAAUACCCAGUGUUUGUUACUUUUUCCAACUACCACUGUAAUGAUAAUCUUUCUCACG | 0.226 |
| AACUGGCGUGAAAGGUGAGCAGGCGUCUGCGGAGCGGAUUCCUGUGGUGGACCGUGGAGUGCAGAGGUUUAGGGAGAUCCUGCCAUUGCUCACACAAGAAGACAGAGCCG | 1.4 |
| AUUAAAAAAGAAUUUGGAGUUAGAAAGGAGGGGUUGUCAUCUCCUGGAGCUCAUUGAUUAGAAGAUAACACCCAGGAAUUGUUUCCACUGGGUCCUGGCUGUCCAUAAGG | 0.896 |

Series 3
Target: Interferon regulatory factor 3, full length, phosphomimetic (IRF3, Homo sapiens, UniProt Q14653, residues 1-427, S386D/S396D/S398D/S402D/T404D/S405D)
Technique: protein-binding microarray
Form: double-stranded DNA, one strand shown
Matrix: in vitro
Tested at: 2540 nM top
Notes: 60-bp whole probe
Together with: salmon DNA 0.4 mg/ml
Reference: random background probes
Reading: higher = stronger binding
Constant ends, left off below: GCCTAGCAC … GTCTTGATTCGCTTGACGCTGCTG
Residues (chain): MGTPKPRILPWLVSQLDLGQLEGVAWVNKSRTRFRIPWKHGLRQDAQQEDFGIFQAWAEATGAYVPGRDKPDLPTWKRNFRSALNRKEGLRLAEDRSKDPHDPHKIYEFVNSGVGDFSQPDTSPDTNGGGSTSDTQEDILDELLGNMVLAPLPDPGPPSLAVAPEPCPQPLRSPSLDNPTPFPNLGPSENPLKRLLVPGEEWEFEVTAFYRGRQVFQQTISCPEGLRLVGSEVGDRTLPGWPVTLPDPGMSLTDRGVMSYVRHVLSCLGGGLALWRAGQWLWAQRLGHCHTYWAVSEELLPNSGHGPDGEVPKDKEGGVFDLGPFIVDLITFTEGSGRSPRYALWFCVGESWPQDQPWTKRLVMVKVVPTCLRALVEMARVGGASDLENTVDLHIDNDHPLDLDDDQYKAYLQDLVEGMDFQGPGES
| Strand | fitted relative affinity [z-score] |
| --- | --- |
| TCAGCTTTCCTTTGCTTACTGTGCTAG | 2.86 |
| GACGCTTTCGGTTCCGGGACGTGCTAG | 6.42 |
| TCAACTAGCGGGTCTTGCACTGTGCTA | -0.429 |
| TTACAACTGAGACTGGATTAGTGCTAG | -0.247 |
| GACAATTTCAGTTTCGAGACGTGCTAG | 4.74 |
| CTAACTTTCCAATTGTCCTTGTGCTAG | 4.44 |
| TCAGATATCAGACTGGATTAGTGCTAG | 0.611 |
| TCAACCATCCTGTGTCTTACTGTGCTA | 0.228 |
| TCACTCACTCACAGACTCACGTGCTAG | 0.101 |
| TTGTTTTTTTCTATATGCAAGTGCTAG | 2.02 |
| GACGATATCAGGCTGGAGACGTGCTAG | -0.167 |
| GACGAACTGATTATCGAGACGTGCTAG | 0.29 |
| CAGCACATGCATCTCCCACAGTGCTAG | -0.503 |
| TCATATATATATTATATAACTGTGCTA | 0.784 |
| GAGGGACTGGGGACTGGGGACGTGCTA | -1.21 |
| GGCGATCTCAGACTGGAGACGTGCTAG | -0.233 |
| TCAGCTCTTGTTTTCACACTGTGCTAG | 0.613 |
| CCTATCTTATGATATATATAAGTGCTA | 1.79 |
| TATCTTATGATATATATAATAGTGCTA | 0.698 |
| TTAGGTTTCCTACTGCTTAAGTGCTAG | 4.86 |
| TTAGAACTGACTATCGATTAGTGCTAG | -0.187 |
| TTAGGTCTCGGGACTGGGTTAGTGCTA | -0.466 |
| GACGGTATCGACTATAGGGACGTGCTA | 0.596 |
| CCAAATCTGTGTTATTAAAATGTGCTA | 0.669 |
| TCTCCTTTCCAAATACCCTCGTGCTAG | 6.89 |

Series 4
Target: Prothrombin, mature alpha-thrombin (F2, Homo sapiens, UniProt P00734)
Technique: aptamer microarray, sandwich
Form: DNA with 2'F-ANA
Matrix: in vitro
Tested at: 200 nM
Notes: whole 15-mer aptamer, many near background
Together with: Cy3 exosite-II aptamer, 400 nM
Reading: higher = stronger binding
Strand: GGTTGGTGTGGTTGG
| Modification | mean fluorescence intensity [a.u.] |
| --- | --- |
| 2'F-ANA at 1 3 5 6 10 11 13 15 | 61.3 |
| 2'F-ANA at 1 2 4 5 9 10 | 47.3 |
| 2'F-ANA at 1 2 3 4 5 6 8 9 10 11 14 15 | 61.6 |
| 2'F-ANA at 1 11 13 | 151 |
| 2'F-ANA at 1 3 6 10 11 13 14 | 58.9 |
| 2'F-ANA at 4 5 6 7 8 11 13 | 55.8 |
| 2'F-ANA at 1 3 8 9 11 14 15 | 82.3 |
| 2'F-ANA at 1 2 6 7 8 9 10 14 | 52 |
| 2'F-ANA at 2 4 7 12 13 14 15 | 189 |
| 2'F-ANA at 1 3 6 7 8 9 10 12 | 114 |
| 2'F-ANA at 1 2 4 9 10 12 13 14 15 | 49 |
| 2'F-ANA at 1 2 3 6 8 9 10 11 | 62 |
| 2'F-ANA at 1 2 4 5 6 8 10 14 | 46.2 |
| 2'F-ANA at 1 3 4 5 8 12 14 | 45.4 |
| 2'F-ANA at 1 2 3 6 8 9 12 | 435 |
| 2'F-ANA at 4 8 9 12 | 572 |
| 2'F-ANA at 1 3 5 7 8 13 | 75.1 |
| 2'F-ANA at 2 7 13 15 | 401 |

Series 5
Target: RING finger protein unkempt homolog, zinc fingers 1-6, GST-SBP tag (UNK, Homo sapiens, UniProt Q9C0B0, residues 30-357)
Technique: RNA Bind-n-Seq
Form: RNA
Matrix: in vitro
Tested at: not given
Notes: RNA with constant flanks, human-mouse chimeric sites, ends assumed
Reference: input RNA pool
Reading: higher = stronger binding
Constant ends, left off below: GGGAGUUCUACAGUCCGACGAUC … CAACAGAGGAUUGAGCAUCA
Target sequence (chain): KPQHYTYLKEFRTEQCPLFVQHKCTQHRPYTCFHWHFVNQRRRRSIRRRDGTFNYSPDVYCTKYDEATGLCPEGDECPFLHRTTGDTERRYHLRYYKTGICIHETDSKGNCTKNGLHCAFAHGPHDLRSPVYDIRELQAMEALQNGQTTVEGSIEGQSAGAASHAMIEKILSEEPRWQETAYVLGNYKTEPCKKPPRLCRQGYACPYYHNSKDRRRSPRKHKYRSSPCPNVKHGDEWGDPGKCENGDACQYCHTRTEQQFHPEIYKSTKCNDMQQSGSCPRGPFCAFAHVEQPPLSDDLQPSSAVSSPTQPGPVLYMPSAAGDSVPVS
| Strand | bound/input enrichment |
| --- | --- |
| CACGUGUCUGCAGUACUUGAUGUGGACUACUCUCCCACUGGGAAGGAGUUUGUGUCUGCCAGCUUUGAUAAGUCUAUUAGAAUCUUUCCUGUGGACAAGAGCCGAAGCAGGGAAGUGUAU | 0.166 ratio |
| GACAGUGAAGGCCCACUGUGUGAAUUGCUUUUUUUCUUCCUGACUGCAAUCUUCCAGGCAAUAGCUGAAGAAGAAGAGGAAGUAGCCAAAGAGCAGAUAACUGAUGCUGACACCAAAGAU | 0.0776 ratio |
| GGAAGCACAAUGAUGGAGAUUGAUGGUGACAAAGGCAAGCAGGGCGGGCCCACCUACUACAUAGACACCAAUGCCCUGCGUGUUCCGAGGGAGAACAUGGAGGCCAUCUCACCACUCAAG | 0.209 ratio |
| AGAGCCCAGGAUGUUGAUGCUACAAAUCCAAAUUAUGAAAUUAUGUGUAUGAUCAGAGACUUUAGAGGGAGCUUGGAUUACAGACCCCUAACAACAGCAGAUCCUAUUGAUGAACAUAGG | 0.555 ratio |
| GCGGCAGAAUCAUGGAGGACAUAAUGCAGCUCCCCAAGUCGCGCAUCAACGCCAGCAUGUUACCACAAUUCAUCGACCGGCCCGUGUGCUUCGUGGGGAAGCUGGAAAAGAUUCAUCCCA | 0.0712 ratio |
| CACGUGUCUGCAGUACUUGAUGUGGAUUACUCUCCCACUGGGAAGGAAUUUGUGUCUGCCAGCUUUGAUAAGUCUAUUAGAAUCUUUCCUGUGGACAAAAGUCGAAGCAGGGAAGUGUAU | 0.244 ratio |
| CCCUCCCCGGGCCACCCACCCCUCCCGGCUCCCCGCCGAGAUCCAGGUUUCUUCUGUUUUCAUAGCAAAUAAGAAAAAUGUUCUACGCACAUUUUGUUCUCAGUAAACGAGGGCCUCUGG | 2.64 ratio |
| UUACCCGAGAACGAGGAUGAGCUGGAGAGCACCAACAGGCGCUACACCAAGAGGGACUGCAGCACUUUCCUCAGAACUAGUGAGACGGGCAUCGUGGAUCAGGUUAUGGUAACUCUCAAC | 0.094 ratio |
| UUCUAGUAUGAUGGUGAUAUUGGCAAUUAUUAUUAUGGCCAGGGUCAUCCCAUGAAGCCUCAUAGAAUCCGGAUGACUCAUAACUUGCUGCUAAAUUAUGGUUUAUACCGAAAAAUGGAA | 0.171 ratio |
| CUGGCCUUCUGAGCAUCAGGGGCCUCCUUUCGUAUAGUCACUGCUUCUGCAUCAGAUACUUUCAGCUGCAACUCCCUACUGGGUGGGGCACCCAUUUCAGGCAGAAGUUGGUGCCCCCCU | 0.0825 ratio |
| UCUGGCCACACUCGUGUGUAUGGUGUUUGCUUUGUGGACACUUCACUGGGCAAGUUUUUCAUCGGCCAGUUUUCAGAUGACCGCCACUGUUCCAGAUUUAGGACGCUAGUGGCUCACUAU | 0.18 ratio |

Repeated from above (series 3):
| Strand | fitted relative affinity [z-score] |
| --- | --- |
| TCAACCATCCTGTGTCTTACTGTGCTA | 0.228 |
| GACGGTATCGACTATAGGGACGTGCTA | 0.596 |
| TATCTTATGATATATATAATAGTGCTA | 0.698 |
| TTAGGTCTCGGGACTGGGTTAGTGCTA | -0.466 |
| TCACTCACTCACAGACTCACGTGCTAG | 0.101 |
| TTACAACTGAGACTGGATTAGTGCTAG | -0.247 |
